Experimental data pooled from the literature.
Each numbered part is a random draw from the data of one study; scales do not carry over between parts.
Sequence of UniProt Q6PHR2 (whole entry, looked up): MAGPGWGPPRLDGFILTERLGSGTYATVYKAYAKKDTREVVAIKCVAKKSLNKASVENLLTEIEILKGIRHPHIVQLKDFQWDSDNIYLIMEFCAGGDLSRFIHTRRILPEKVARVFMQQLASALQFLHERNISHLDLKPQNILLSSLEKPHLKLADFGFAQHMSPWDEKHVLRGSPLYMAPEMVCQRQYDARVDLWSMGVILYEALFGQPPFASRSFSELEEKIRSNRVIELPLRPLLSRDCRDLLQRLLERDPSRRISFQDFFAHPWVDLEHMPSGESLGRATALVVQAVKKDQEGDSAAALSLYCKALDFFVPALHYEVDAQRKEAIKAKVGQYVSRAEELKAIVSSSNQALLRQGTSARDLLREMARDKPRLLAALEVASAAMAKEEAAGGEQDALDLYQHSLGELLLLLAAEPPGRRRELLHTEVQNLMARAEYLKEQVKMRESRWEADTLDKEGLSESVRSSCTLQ
Sequence of UniProt Q56UN5 (whole entry, looked up): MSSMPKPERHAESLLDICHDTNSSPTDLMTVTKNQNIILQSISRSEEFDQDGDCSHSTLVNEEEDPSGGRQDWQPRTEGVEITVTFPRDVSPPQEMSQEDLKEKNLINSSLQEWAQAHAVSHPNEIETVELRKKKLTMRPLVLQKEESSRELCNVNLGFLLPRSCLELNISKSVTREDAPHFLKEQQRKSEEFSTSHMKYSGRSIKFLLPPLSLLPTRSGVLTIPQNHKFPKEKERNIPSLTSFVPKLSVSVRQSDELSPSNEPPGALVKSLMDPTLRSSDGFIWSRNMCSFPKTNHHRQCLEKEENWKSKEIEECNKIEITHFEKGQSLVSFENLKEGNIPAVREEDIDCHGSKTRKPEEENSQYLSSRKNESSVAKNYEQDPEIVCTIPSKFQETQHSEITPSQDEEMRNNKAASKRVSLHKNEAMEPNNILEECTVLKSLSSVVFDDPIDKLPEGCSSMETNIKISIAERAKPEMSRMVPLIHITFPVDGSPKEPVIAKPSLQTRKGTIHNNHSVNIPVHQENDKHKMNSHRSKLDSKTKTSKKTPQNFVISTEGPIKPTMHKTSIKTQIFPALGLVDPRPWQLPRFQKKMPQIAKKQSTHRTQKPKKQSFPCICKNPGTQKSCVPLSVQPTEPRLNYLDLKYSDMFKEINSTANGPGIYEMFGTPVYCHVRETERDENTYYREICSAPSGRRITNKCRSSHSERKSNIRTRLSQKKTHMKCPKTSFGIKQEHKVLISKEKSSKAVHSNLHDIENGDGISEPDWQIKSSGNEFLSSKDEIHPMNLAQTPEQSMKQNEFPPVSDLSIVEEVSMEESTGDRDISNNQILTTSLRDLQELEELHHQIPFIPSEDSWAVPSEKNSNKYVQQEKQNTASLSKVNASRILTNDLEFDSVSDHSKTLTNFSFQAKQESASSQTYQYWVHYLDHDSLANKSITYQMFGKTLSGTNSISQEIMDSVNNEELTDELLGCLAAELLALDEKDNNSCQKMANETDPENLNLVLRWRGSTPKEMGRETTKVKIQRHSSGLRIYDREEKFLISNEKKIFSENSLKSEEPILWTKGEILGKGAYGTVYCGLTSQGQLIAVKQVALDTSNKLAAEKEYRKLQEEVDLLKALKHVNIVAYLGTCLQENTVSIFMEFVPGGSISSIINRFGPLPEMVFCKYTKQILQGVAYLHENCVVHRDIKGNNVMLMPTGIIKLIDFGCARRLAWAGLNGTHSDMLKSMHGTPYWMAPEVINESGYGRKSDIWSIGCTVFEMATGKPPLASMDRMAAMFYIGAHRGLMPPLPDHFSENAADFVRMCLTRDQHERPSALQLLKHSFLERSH
Sequence of UniProt Q9Y6M4 (whole entry, looked up): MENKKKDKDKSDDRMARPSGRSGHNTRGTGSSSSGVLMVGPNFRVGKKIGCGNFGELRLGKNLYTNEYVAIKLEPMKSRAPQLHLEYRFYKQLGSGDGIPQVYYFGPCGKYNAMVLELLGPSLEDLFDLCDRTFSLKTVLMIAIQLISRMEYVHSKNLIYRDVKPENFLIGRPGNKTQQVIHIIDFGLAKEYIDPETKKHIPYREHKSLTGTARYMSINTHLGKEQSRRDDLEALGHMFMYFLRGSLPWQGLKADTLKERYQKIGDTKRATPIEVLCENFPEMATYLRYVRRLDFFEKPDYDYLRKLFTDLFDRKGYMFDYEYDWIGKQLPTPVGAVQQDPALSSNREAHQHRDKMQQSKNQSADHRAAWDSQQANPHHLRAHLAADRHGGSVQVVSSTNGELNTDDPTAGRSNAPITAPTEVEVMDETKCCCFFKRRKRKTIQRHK
Sequence of UniProt Q16816 (whole entry, looked up): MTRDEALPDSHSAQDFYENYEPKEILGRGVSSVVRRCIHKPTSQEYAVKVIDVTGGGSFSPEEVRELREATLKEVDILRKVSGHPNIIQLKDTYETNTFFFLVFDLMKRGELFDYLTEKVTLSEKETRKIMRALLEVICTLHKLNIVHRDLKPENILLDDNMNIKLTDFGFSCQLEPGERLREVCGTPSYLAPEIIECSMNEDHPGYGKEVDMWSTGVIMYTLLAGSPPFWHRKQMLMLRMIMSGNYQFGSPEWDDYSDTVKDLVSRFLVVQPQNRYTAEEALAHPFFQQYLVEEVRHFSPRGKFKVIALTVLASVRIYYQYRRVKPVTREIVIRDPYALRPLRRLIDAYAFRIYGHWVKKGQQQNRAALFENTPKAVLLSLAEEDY
Sequence of UniProt P42684 (whole entry, looked up): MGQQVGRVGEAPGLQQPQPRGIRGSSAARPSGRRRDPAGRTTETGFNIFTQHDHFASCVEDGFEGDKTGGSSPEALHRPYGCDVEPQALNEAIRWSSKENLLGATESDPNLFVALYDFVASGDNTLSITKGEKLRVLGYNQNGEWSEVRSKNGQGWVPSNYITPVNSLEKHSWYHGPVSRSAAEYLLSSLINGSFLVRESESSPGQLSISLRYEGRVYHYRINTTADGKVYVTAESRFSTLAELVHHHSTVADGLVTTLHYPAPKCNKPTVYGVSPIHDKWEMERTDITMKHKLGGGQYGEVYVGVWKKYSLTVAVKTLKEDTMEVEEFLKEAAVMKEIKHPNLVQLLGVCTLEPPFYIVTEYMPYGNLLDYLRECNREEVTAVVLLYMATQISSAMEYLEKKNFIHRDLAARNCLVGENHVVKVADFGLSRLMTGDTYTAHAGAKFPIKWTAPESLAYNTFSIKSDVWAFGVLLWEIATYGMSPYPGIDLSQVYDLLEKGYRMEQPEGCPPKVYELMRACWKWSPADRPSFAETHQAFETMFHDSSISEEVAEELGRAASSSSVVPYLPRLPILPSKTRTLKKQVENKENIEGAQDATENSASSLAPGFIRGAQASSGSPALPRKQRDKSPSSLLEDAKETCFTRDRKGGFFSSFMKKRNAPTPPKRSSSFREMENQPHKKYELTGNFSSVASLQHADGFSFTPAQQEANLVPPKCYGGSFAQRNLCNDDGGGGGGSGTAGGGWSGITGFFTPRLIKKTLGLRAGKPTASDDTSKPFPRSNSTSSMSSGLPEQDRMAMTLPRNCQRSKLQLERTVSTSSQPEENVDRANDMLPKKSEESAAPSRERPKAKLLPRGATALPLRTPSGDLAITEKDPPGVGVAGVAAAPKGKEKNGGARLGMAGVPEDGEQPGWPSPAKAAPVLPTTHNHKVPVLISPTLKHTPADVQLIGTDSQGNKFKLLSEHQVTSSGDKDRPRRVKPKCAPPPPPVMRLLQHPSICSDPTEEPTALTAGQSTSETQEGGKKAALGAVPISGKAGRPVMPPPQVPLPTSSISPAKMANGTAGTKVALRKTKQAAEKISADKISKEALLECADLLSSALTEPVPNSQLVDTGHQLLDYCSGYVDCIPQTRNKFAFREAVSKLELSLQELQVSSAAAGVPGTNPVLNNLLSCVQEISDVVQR
Sequence of UniProt Q99558 (whole entry, looked up): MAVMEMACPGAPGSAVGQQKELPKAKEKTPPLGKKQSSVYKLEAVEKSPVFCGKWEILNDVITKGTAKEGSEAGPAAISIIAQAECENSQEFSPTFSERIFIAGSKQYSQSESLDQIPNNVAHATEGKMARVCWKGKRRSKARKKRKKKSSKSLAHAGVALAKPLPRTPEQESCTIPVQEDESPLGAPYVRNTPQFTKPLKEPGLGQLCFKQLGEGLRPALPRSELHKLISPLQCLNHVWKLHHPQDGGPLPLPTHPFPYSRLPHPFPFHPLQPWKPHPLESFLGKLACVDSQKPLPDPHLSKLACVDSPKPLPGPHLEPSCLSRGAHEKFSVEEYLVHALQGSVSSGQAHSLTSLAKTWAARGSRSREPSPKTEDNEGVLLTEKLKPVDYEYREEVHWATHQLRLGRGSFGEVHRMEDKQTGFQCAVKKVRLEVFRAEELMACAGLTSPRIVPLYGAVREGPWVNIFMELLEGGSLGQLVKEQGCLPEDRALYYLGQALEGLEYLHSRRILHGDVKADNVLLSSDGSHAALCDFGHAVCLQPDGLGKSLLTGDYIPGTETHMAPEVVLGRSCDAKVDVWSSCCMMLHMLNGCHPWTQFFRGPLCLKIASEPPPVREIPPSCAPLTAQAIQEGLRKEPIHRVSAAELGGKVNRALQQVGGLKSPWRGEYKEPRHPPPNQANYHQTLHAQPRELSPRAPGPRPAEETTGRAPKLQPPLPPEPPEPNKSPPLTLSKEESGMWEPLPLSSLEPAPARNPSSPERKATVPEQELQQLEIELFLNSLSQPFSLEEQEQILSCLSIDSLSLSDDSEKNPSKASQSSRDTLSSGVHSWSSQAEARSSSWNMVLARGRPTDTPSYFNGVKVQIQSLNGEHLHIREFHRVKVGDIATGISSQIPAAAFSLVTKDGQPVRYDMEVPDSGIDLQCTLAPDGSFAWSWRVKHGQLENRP

Study 1 — method: RNA Bind-n-Seq; form: RNA; sample: in vitro; tested at: 20 nM; setting: 6-mer, flanks averaged, single round; together with: 150 mM KCl; baseline: input library; reading: higher = stronger binding
Target: TAR DNA-binding protein 43, full length, His tag (TARDBP, Homo sapiens, UniProt Q13148, residues 1-414)
Sequence | 6-mer enrichment (R)
GGGCCA | 2.28
GCAACU | 0.688
GAAAAC | 0.604
AGGGGA | 4.15
GAUUCU | 0.571
CCCAAG | 0.739
UUAACG | 0.621
UAGAAG | 0.947

Study 2 — observed: cell-free assay; method: competition with immobilised ligand; tested at: 1 µM
Structure (SMILES): CCC(=O)N[C@@H]1CC[C@H](C(=O)N(C)c2ccc(-c3nc4ccccc4o3)cc2)C1
target | remaining binding [%]
Receptor-type tyrosine-protein kinase FLT3 (FLT3, Homo sapiens, UniProt P36888, K663Q) | 100
Phosphorylase b kinase gamma catalytic chain, skeletal muscle/heart isoform (PHKG1, Homo sapiens, UniProt Q16816) | 100
Mitogen-activated protein kinase kinase kinase 19 (MAP3K19, Homo sapiens, UniProt Q56UN5) | 92
Tyrosine-protein kinase JAK3, JH1 (JAK3, Homo sapiens, UniProt P52333) | 98
Serine/threonine-protein kinase 38-like (STK38L, Homo sapiens, UniProt Q9Y2H1) | 100
Mitogen-activated protein kinase kinase kinase 12 (MAP3K12, Homo sapiens, UniProt Q12852) | 100

Study 3 — method: protein binding microarray; form: double-stranded DNA, one strand shown; sample: in vitro; tested at: not given; baseline: not given; reading: higher = stronger binding
Target: Histone acetyltransferase KAT6A, both winged helices, GST fusion (KAT6A, Homo sapiens, UniProt Q92794, residues 1-181)
Setting: 8-mer, flanks averaged, mean of 2 arrays, mostly near background
Construct (chain): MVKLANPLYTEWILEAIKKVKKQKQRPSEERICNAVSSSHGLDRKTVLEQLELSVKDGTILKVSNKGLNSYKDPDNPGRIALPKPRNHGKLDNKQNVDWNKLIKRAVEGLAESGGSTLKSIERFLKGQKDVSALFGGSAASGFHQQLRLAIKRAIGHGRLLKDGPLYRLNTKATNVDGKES
Sequence | E-score
ACCACTCG | -0.0545
ATGACGGG | 0.269
TCACGGCA | 0.301
ACAAACTG | -0.208
GGGTTCGA | 0.00044
AAGACGAT | -0.0434
AGCACGCA | 0.121
AGAAGGTC | -0.0836

Study 4 — observed: enzyme activity; mode: inhibitor; tested at: 0.5 µM; baseline: control
SMILES: CN(C)C[C@H]1CCn2c(c(C3=C(c4cn(C)c5ccccc45)C(=O)NC3=O)c3ccccc32)C1
target | remaining activity [%]
Tyrosine-protein kinase Lck (LCK, Homo sapiens, UniProt P06239) | 96.5
Fibroblast growth factor receptor 1 (FGFR1, Homo sapiens, UniProt P11362) | 87.8
Fibroblast growth factor receptor 3 (FGFR3, Homo sapiens, UniProt P22607) | 96.3
MAP kinase-activated protein kinase 2 (MAPKAPK2, Homo sapiens, UniProt P49137) | 102
Tyrosine-protein kinase Mer (MERTK, Homo sapiens, UniProt Q12866) | 95.4
Mitogen-activated protein kinase kinase kinase 5 (MAP3K5, Homo sapiens, UniProt Q99683) | 107
Serine/threonine-protein kinase ULK3 (ULK3, Homo sapiens, UniProt Q6PHR2) | 88.9
Tyrosine-protein kinase ABL2 (ABL2, Homo sapiens, UniProt P42684) | 96.3
Activin receptor type-1B (ACVR1B, Homo sapiens, UniProt P36896) | 98.2
Casein kinase I isoform gamma-3 (CSNK1G3, Homo sapiens, UniProt Q9Y6M4) | 104
Mitogen-activated protein kinase 3 (MAPK3, Homo sapiens, UniProt P27361) | 102
Mitogen-activated protein kinase kinase kinase 14 (MAP3K14, Homo sapiens, UniProt Q99558) | 105
Serine/threonine-protein kinase ULK2 (ULK2, Homo sapiens, UniProt Q8IYT8) | 105
